Experimental data pooled from the literature.
Compare with care: the assays were run in different laboratories. Values joined by “and” are separate records of one study, mostly repeats; a detail may differ. ± gives the spread as reported.

Compound | assay | test system | conditions | how to read | measurement | value
OCc1cn(Cc2ccc(-c3noc(-c4ccc(OCC[18F])c(C(F)(F)F)c4)n3)cc2)nn1 | – | Lewis rats, female, hippocampus | intravenous, 5 min | – | brain uptake | 0.43 %ID/g
[11CH3]c1ccc2nc(C3CCC3)n(-c3ccc4[nH]ncc4c3)c2n1 | – | ddY mouse, blood | – | baseline: 1 min over 60 min | uptake ratio | 2.9
CC1(C)CNC(=O)c2ccccc21 | – | Sprague-Dawley rat, male, plasma | oral, 5 mg/kg | – | AUC(0-t) | 2890 ± 453 ng·h/mL
NC(=O)[C@H](Cc1ccccc1)N[11C](=O)OCc1ccccc1 | – | male Wistar rats, plasma | intravenous, 15 min | – | intact tracer | 15% and 15.2%
CCC(CC)[C@H](NC(C)=O)[C@@H]1[C@H](O)[C@@H](C(=O)N[C@H](C(=O)O)[C@@H](C)CC)C[C@H]1NC(=N)N | – | rat, Sprague-Dawley, liver homogenate | 100 µg/mL, pH 7.4, 37 °C | – | t1/2 | 8.3 ± 0.1 h
CN(O)C(=O)CCC(=O)NCCCN(CCCCN(CCCNC(=O)CCC(=O)N(C)O)C(=O)CCC(=O)N(C)O)C(=O)CCC(=O)N(C)O.[89Zr] | – | mouse, lung | 4 h | – | tracer uptake | 0.05 %ID/g
CCc1c2c(nc3ccc(O)cc13)-c1cc3c(c(=O)n1C2)COC(=O)[C@]3(O)CC | – | human patients, plasma | intravenous, 75 mg/m^2 of parent drug | – | AUC(0-inf) | 738 ng·h/mL
C=C(c1ncc(C(=O)O)cn1)c1cc2c(cc1C)C(C)(C)CCC2(C)C | – | Sprague-Dawley rat, male | oral, 100 mg/kg, 24 h, sesame oil vehicle | – | blood cholesterol | 47 ± 7.5 mg/dL
CC(C)[C@H](NC(=O)[C@@H]1CCCN1C(=O)[C@H](CCCNC(=N)N)NC(=O)[C@H](CS)NC(=O)[C@H](Cc1c[nH]c2ccccc12)NC(=O)[C@H](CCCNC(=N)N)NC(=O)[C@@H](Cc1ccccc1)NC(=O)[C@H](Cc1c[nH]cn1)NC(=O)[C@H](CCC(=O)O)NC(=O)[C@H](CS)NC(=O)[C@H](CS)NC(=O)CNC(=O)[C@@H]1CC(=O)N[C@@H](CCCNC(=N)N)C(=O)NCC(=O)N[C@@H](CC(=O)O)C(=O)N[C@H](Cc2ccc(O)cc2)C(=O)N1)C(N)=O [technetium-99m labelled] | – | C57 mouse, female, B16/F1 melanoma | intravenous, 0.037 MBq, 0.5 h | baseline: tumour over lung | tumour to tissue ratio | 1.26
COc1cc(OC)cc(C2=C3C(C)=C(I)C(C)=[N+]3[B-](F)(F)n3c(/C=C/c4c[nH]c5ccc([N+](=O)[O-])cc45)c(I)c(C)c32)c1 | – | dichloromethane | – | baseline: methylene blue | fluorescence quantum yield | 0.37
NC12CNCCNCC(NCc3ccc(CNC(=O)CCCC(=O)NCc4ccc(-c5nncnn5)cc4)cc3)(CNCCNC1)CNCCNC2.[64Cu+2] | OLINDA dosimetry | skin | 24 h pretargeting interval, with: huA33-TCO pretargeting | – | mean absorbed dose | 0.0298 rad/mCi
CC(=O)N[C@@H](CCCCN)C(=O)N[C@@H](CCCCN)C(=O)N[C@@H](CCCCN)C(=O)N[C@@H](CCCCN)C(=O)N[C@@H](CCCCN)C(=O)N[C@@H](CCCCN)C(=O)N[C@@H](CCCCN)C(=O)N[C@@H](CCCCN)C(=O)N[C@@H](CCCCN)C(=O)N[C@@H](CCCCN)C(=O)N[C@@H](CCC(N)=O)C(=O)N[C@@H](Cc1c[nH]c2ccccc12)C(=O)N[C@@H](CCC(N)=O)C(=O)N[C@@H](Cc1c[nH]c2ccccc12)C(=O)N[C@@H](CCC(N)=O)C(=O)N[C@@H](Cc1c[nH]c2ccccc12)C(=O)N[C@@H](CCC(N)=O)C(=O)N[C@@H](Cc1c[nH]c2ccccc12)C(=O)N[C@@H](CCC(N)=O)C(=O)N[C@@H](Cc1c[nH]c2ccccc12)C(=O)N[C@@H](CCC(N)=O)C(=O)N[C@@H](Cc1c[nH]c2ccccc12)C(N)=O | sedimentation velocity AUC | Tris buffer 20 mM | 20 µM, 24 h, pH 7.4, 4 °C | – | monomer fraction | 78%
CN(C)c1cc(CN2CCCCC2)c(O)c2c1C[C@H]1C[C@H]3[C@H](N(C)C)C(O)=C(C(N)=O)C(=O)[C@@]3(O)C(O)=C1C2=O | – | cynomolgus monkey, plasma | oral, 5 mg/kg | – | Cmax | 210 ng/mL
COc1cc(NC(C)=O)c2c(c1O)-c1c(OC)c(OC)cc3c1C(C2)N(C)CC3 (centres unmarked) | – | rat, plasma | 50 µg/mL, 40 d, -20 °C, long-term storage | – | remaining compound | 92.9 ± 9.5%
CC(C)(O)c1ncc([S@](N)(=O)=NC(=O)Nc2c3c(cc4c2CCC4)CCC3)s1 | – | healthy human subjects | oral, dose not given | – | subjects with drug-related TEAEs | 22%
Cc1cc(C(=O)Nc2nc3cccc(C)c3n2[C@H]2CCCCN(C(=O)/C=C/CN(C)C)C2)ccn1 | – | rat brain tissue | concentration not given | – | brain tissue binding | > 99%
CC(=O)N[C@H](CC(=O)O)C(=O)N[C@H](Cc1c[nH]c2ccccc12)C(=O)N[C@H](Cc1ccccc1)C(=O)N[C@H](CCCCN)C(=O)N[C@H](C)C(=O)N[C@H](Cc1ccccc1)C(=O)N[C@H](Cc1ccc(O)cc1)C(=O)N[C@H](CC(=O)O)C(=O)N[C@H](CCCCN)C(=O)N[C@@H](C(=O)N[C@H](C)C(=O)N[C@H](CCC(=O)O)C(=O)N[C@H](CCCCN)C(=O)N[C@H](Cc1ccccc1)C(=O)N[C@H](CCCCN)C(=O)N[C@H](CCC(=O)O)C(=O)N[C@H](C)C(=O)N[C@H](Cc1ccccc1)C(N)=O)C(C)C | – | statin-treated high-risk CHD men, plasma | oral, 500 mg daily, day 1, 0 to 2 h, mean, all subjects | – | AUC(0-t) | 32.9 ng·h/mL
NC(=O)/C=C/c1cccc(S(=O)(=O)Nc2ccccc2)c1 | – | human, severe liver dysfunction, plasma | intravenous, 400 mg/m^2 belinostat, cycle 1 day -7, geometric mean | baseline: metabolite over belinostat | AUC(0-inf) metabolic ratio | 1.13
NC(=O)[C@@H](CCCCNC(=O)CNC(=O)CCC(=O)NCCc1c[nH]cn1)NC(=O)[C@@H](CCC(=O)O)NC(=O)[C@@H](CCCCNC(=O)CNC(=O)CCC(=O)NCCc1c[nH]cn1)NC(=O)[C@@H](Cc1ccc(O)cc1)NC(=O)CN1CCN(CC(=O)O)CCN(CC(=O)O)CCN(CC(=O)O)CC1 [indium-111 labelled] | SPECT | human, CEACAM5-expressing tumours, tumour | intravenous, dose not given, 24 h, with: TF2 pretargeting 150 mg | – | tumour activity concentration | 5.9 %ID/kg
CCN(CC)c1ccc2c(-c3ccccc3C(=O)OCCOCCOCC[18F])c3ccc(=[N+](CC)CC)cc-3oc2c1 | – | rat, muscle | 60 min | – | tissue uptake | 0.32 ± 0.05 %ID/g
C=C(C)C(=O)Nc1ccc(-c2c(-c3ccc(Oc4nccc(C)n4)cc3)c3c(N)ncnc3n2C)cc1 | – | cynomolgus monkey, plasma | 5 µM, 18 h | – | fraction unbound | 0.0017

Compound | assay | test system | conditions | how to read | measurement | value
COc1ccnc(C[S+]([O-])c2nc3cc(-n4cccc4)ccc3[nH]2)c1C (centres unmarked) | – | male Sprague Dawley rats, plasma | oral, 1 mg/kg ilaprazole racemate | baseline: compound over R-ilaprazole | Vz/F ratio | 0.38
Oc1ccc2ccccc2c1/N=N/c1ccccc1 | – | extracted rat blood QC samples | 0.2 µg/L, 4 h, room temperature, short-term stability | – | measured concentration | 0.198 µg/L
COc1ccc(-c2csc(N/N=C(\C)c3cc(O)cc(O)c3)n2)cc1 | LC-MS/MS | rat plasma | 3.75 ng/mL, 45 days, long-term storage at -70 °C | – | concentration after storage | 3.53 ng/mL
C#CCN(CCCNC(=O)CCCCC[N+]1=C(/C=C/C2=C(Cl)C(=C/C=C3\N(CCCCCC(=O)[O-])c4ccccc4C3(C)C)/CCC2)C(C)(C)c2ccccc21)CCCOc1ccc(Cl)cc1Cl | – | mouse plasma | 0.01 µg/mL nominal, 4 h, on ice | – | concentration | 9.9 ± 0.5 ng/mL
CCNC(=O)OCc1c(COC(=O)NCC)c(-c2ccc(OC)cc2)n2c1Cc1ccccc1-2 | – | BALB/c nude mice, blood | dose not given, day 10 | – | red cell distribution width | 18.5 ± 0.8%
COc1cccc(C=NCCCN(C)CCN(C)CCCN=Cc2cccc(OC)c2[O-])c1[O-].[67Ga+3] | – | rat | intravenous, 2 h | baseline: heart over lung | tissue uptake ratio | 2.9 ± 0.4
COCCOCCOCCOCCC(=O)NCc1cc(CNC(=O)CCOCCOCCOCCOC)cc(-c2cc3cc4nc(c(-c5ccc(CCC(=O)O)cc5)c5[nH]c(cc6nc(c(OC)c2[nH]3)CC6(C)C)cc5-c2cc(CNC(=O)CCOCCOCCOCCOC)cc(CNC(=O)CCOCCOCCOCCOC)c2)CC4(C)C)c1 | – | DMF | room temperature | – | singlet excited-state lifetime | 3.74 ns
CCCC[C@H](NC(=O)CNC(=O)CNC(=O)CN1CCN(CC(=O)O)CCN(CC(=O)O)CC1)C(=O)N[C@H]1CC(=O)NCCCC[C@@H](C(N)=O)NC(=O)[C@H](Cc2c[nH]c3ccccc23)NC(=O)[C@H](CCCNC(=N)N)NC(=O)[C@@H](Cc2ccccc2)NC(=O)[C@H](Cc2c[nH]cn2)NC1=O [copper-64 labelled] | – | female C57 mouse, B16/F1 melanoma | intravenous, 0.037 MBq, 2 h | baseline: tumour over liver | uptake ratio | 18
CC(C)C[C@@H](N)C(=O)N[C@H](CC(=O)O)C(=O)N[C@@H](C(=O)N[C@H](Cc1ccccc1)C(=O)N[C@H](CC(C)C)C(=O)N[C@H](Cc1ccc(O)cc1)C(=O)N[C@H](CO)C(=O)N[C@H](CCC(=O)O)C(=O)O)C(C)C | – | 4T1 and MC-38 tumour mice | dose not given | – | ALT level | no effect
C=CC(=O)Nc1cc(Nc2nccc(-c3cn(C4CC4)c4ccccc34)n2)c(OC)cc1N(C)CCNC | radio-HPLC, co-eluting peaks pooled | human male, feces | oral, 110 mg, 0 to 240 h, sample holds 81.99% dose | baseline: dose | excreted amount | 12.3%
[2H]C([2H])([2H])Oc1cc2c(cc1OC([2H])([2H])[2H])[C@H]1CC(=O)[C@H](CC(C)C)CN1CC2 | measured: nausea | human | oral, 25 mg | – | subjects with adverse event | 9.5%
CC(C)c1cnc(-c2cc(Cl)ccc2F)cc1Nc1ccncc1C(=O)NC(CO)CO | monotherapy, measured: headache | human patients | oral, dose not given, grade 1, phase I A | – | patients with treatment-related adverse event | 11.9%
CCCCCCCCCCC(=O)C(F)(F)F | 19F NMR | chloroform | – | – | hydrate fraction | 0%
COc1cc(N(C)CCN(C)C)c(NC(=O)CCSCC(NC(C)=O)C(=O)O)cc1Nc1nccc(-c2cn(C3CC3)c3ccccc23)n1 (centres unmarked) | radio-HPLC | human, feces | 0 to 48 h, sample holds 45.32% dose | baseline: dose | excreted amount | 1.11%
Cn1c(=O)oc2ccc(-c3ccc(CC(C#N)NC(=O)C4CNCCCO4)c(F)c3)cc21 (centres unmarked) | measured: blood bilirubin increased | human volunteers | oral, dose not given | – | treatment-emergent adverse event incidence | 3.7%
N=C(N)NCCC[C@@H]1NC(=O)[C@H](Cc2c[nH]c3ccccc23)NC(=O)[C@@H](CC2CCCCC2)NC(=O)[C@@H]2CCCN2C(=O)[C@@H](NC(=O)CCc2ccccc2)CCCNC1=O | – | C57BL/6J mice, plasma | oral, 1 mg/kg | – | elimination half-life | 0.331 h
COC(=O)c1ccc2c(c1)NC(=O)/C2=C(\Nc1ccc2c(c1)CCN2C(=O)CN1CCOCC1)c1ccccc1 | – | cynomolgus monkey, plasma | oral, 5 mg/kg | – | dose-normalized Cmax | 73 ± 54 ng/mL
Cc1ccc(OCC(=O)N(Cc2cccs2)c2ccn[nH]2)cc1 | – | beagle dog, male, plasma | oral gavage, 100 mg/kg | – | dose-normalised AUC(0-last) | 7.04 ng·h/mL/mg/kg
O=C(CCc1ccc(CNC(C(=O)OC2CCCC2)C2CCCCC2)cn1)NO (centres unmarked) | – | human, plasma | oral, 20 mg once daily, day 1, geometric mean | – | AUC(tau) | 85.7 ng·h/mL
[2H]C([2H])([2H])NC(=O)c1ccc(N2C(=S)N(c3ccc(C#N)c(C(F)(F)F)c3)C(=O)C2(C)C)cc1F | – | human, male | oral, 160 mg, single dose, fasted | – | Vd/F | 48.2 ± 14 L

A few entries again:
Compound | assay | test system | conditions | how to read | measurement | value
NC(=O)[C@H](Cc1ccccc1)N[11C](=O)OCc1ccccc1 | – | male Wistar rats, plasma | intravenous, 15 min | – | intact tracer | 15% and 15.2%
CCC(CC)[C@H](NC(C)=O)[C@@H]1[C@H](O)[C@@H](C(=O)N[C@H](C(=O)O)[C@@H](C)CC)C[C@H]1NC(=N)N | – | rat, Sprague-Dawley, liver homogenate | 100 µg/mL, pH 7.4, 37 °C | – | t1/2 | 8.3 ± 0.1 h
CN(O)C(=O)CCC(=O)NCCCN(CCCCN(CCCNC(=O)CCC(=O)N(C)O)C(=O)CCC(=O)N(C)O)C(=O)CCC(=O)N(C)O.[89Zr] | – | mouse, lung | 4 h | – | tracer uptake | 0.05 %ID/g
CCc1c2c(nc3ccc(O)cc13)-c1cc3c(c(=O)n1C2)COC(=O)[C@]3(O)CC | – | human patients, plasma | intravenous, 75 mg/m^2 of parent drug | – | AUC(0-inf) | 738 ng·h/mL
